{"data": "Results gathered from unrelated publications", "organism": "Plasmodium falciparum", "note": "Each line is one published result; not all experiments were run side by side. ± gives the spread as reported."}
{"SMILES": "COCCN(C)CC(=O)NC(Cc1ccc(-c2ccccc2)cc1)B(O)O (centres unmarked)", "test": "[3H]-hypoxanthine incorporation", "test system": "Cam3.1, artemisinin-resistant", "endpoint": "IC50", "result": "157 ± 52 nM"}
{"SMILES": "CCc1nc(N)nc(N)c1-c1ccc(Cl)cc1", "test system": "3D7", "setting": "10 × EC50, 120 h", "endpoint": "log PRR", "result": 3.23}
{"SMILES": "Cc1cc(N2CCC(CO)(C3CC3)C2=O)cc(C(=O)NCc2cc(F)cc(-c3cnn(C)c3)c2)n1 (centres unmarked)", "test": "parasite growth", "test system": "conditional knockdown control line", "setting": "120 h, together with: 12.5 nM anhydrotetracycline", "endpoint": "IC50", "result": "201 nM"}
{"SMILES": "CC1=N[C@H](C)Cc2c(-c3ccc4ccccc4c3)ccc(O)c21", "test": "asexual parasite growth, SYBR Green I", "test system": "clinical isolate SB_04, Malawi", "endpoint": "IC50", "result": "794.4 ± 5.2 nM"}
{"SMILES": "CCN(CC)CCCC(C)Nc1ccnc2cc(Cl)ccc12 (centres unmarked)", "test": "parasite growth", "setting": "72 h, blood stage", "endpoint": "EC50", "result": "26.9 nM"}
{"SMILES": "Cc1cc(C(=O)N[C@@H](CC(=O)NC(C)(C)C)C(=O)NCCNC(=O)c2cc(-c3ccccc3)ccn2)no1", "test": "parasite growth", "test system": "NF54", "setting": "24 h, gametocyte", "endpoint": "EC50", "result": "501 nM"}
{"SMILES": "Cc1cc(N2CC[C@@](C#N)(C3(C)CC3)C2=O)cc(C(=O)NCc2cc(F)cc(-c3cnn(C)c3)c2)n1", "test system": "Pf3D70087/N9, humanized SCID mouse", "setting": "10 mg/kg, 4-day test, day 6 post-infection", "endpoint": "parasitaemia", "result": "1.6%"}
{"SMILES": "CC(C)(C)NC(=O)CC(NC(=O)CCc1ccccc1)C(=O)NCCNC(=O)c1cccc2ccccc12 (centres unmarked)", "test": "parasite growth, SYBR Green", "test system": "3D7", "setting": "72 h, blood stage", "endpoint": "EC50", "result": "23 nM"}
{"SMILES": "COc1cc2[nH]c(C)c(-c3ccc(Oc4ccc(OC(F)(F)F)cc4)cc3)c(=O)c2cc1Cl", "test": "parasite growth", "test system": "3D7", "setting": "blood stage", "endpoint": "EC50", "result": "17.8 nM"}
{"SMILES": "CC(C)(C)NC(=O)CC(NC(=O)CCc1ccccc1)C(=O)NCCNC(=O)c1cccc(-c2ccccc2)c1 (centres unmarked)", "test": "parasite growth", "test system": "NF54", "setting": "48 h, gametocyte", "endpoint": "EC50", "result": "28.2 nM"}
{"SMILES": "CC1=N[C@H](C)Cc2c(-c3ccc(C)cc3)ccc(O)c21", "test": "asexual parasite proliferation, SYBR Green I fluorescence", "test system": "K1", "endpoint": "IC50", "result": "446 ± 83 nM"}
{"SMILES": "Cc1cc(N2CC[C@@](C#N)(C3CC3)C2=O)cc(NC(=O)Cc2ccccc2)n1", "test": "parasite growth", "test system": "conditional knockdown control line", "setting": "72 h, together with: 50 nM anhydrotetracycline", "endpoint": "IC50", "result": "37 nM"}
{"SMILES": "CCC1(CC)CC(=O)N(C2c3cc(C(=O)NC4c5ccccc5CC4O)ccc3OC2(C)COC)C(=N)N1 (centres unmarked)", "test system": "reversion line", "setting": "6 months without drug", "endpoint": "EC50", "result": "3.33 nM"}
{"SMILES": "COc1cccc2c(-c3ccc(O)c4c3C[C@@H](C)N[C@@H]4C)c(C)cc(O)c12", "test": "asexual parasite proliferation, SYBR Green I fluorescence", "test system": "clinical isolate SB_05, Mozambique", "endpoint": "IC50", "result": "19.8 ± 2.3 nM"}
{"SMILES": "Cc1cc(C(=O)N[C@@H](CC(=O)NC(C)(C)C)C(=O)NCCNC(=O)c2cccc(-c3ccn[nH]3)c2)no1", "test": "male gamete activation", "test system": "NF54", "setting": "48 h", "endpoint": "EC50", "result": "240 nM"}
{"SMILES": "COc1cccc2c(-c3ccc4c(c3O)[C@@H](C)N[C@H](C)C4)c(CO)cc(OC)c12", "test": "asexual parasite proliferation, SYBR Green I fluorescence", "test system": "K1", "endpoint": "IC50", "result": "29.2 ± 5.8 nM"}
{"SMILES": "CCNCC#CCNc1ccnc2cc(Cl)ccc12", "test": "parasite growth, SYBR Green I", "test system": "3D7", "setting": "mean of experiments", "endpoint": "IC50", "result": "34.1 nM"}
{"SMILES": "COc1cc(O)c(-c2cc(-c3cc(-c4c(O)cc(OC)c5c4C[C@@H](C)N[C@@H]5C)c4cc(C)cc(OC)c4c3O)c(O)c3c(OC)cc(C)cc23)c2c1[C@@H](C)N[C@H](C)C2", "test": "asexual parasite proliferation, SYBR Green I fluorescence", "test system": "K1", "endpoint": "IC50", "result": "115 ± 26 nM"}
{"SMILES": "COc1cncc(-c2cc(F)cc(CNC(=O)c3cc(N4CC[C@@](C#N)(C5CC5)C4=O)cc(C)n3)c2)c1", "test": "parasite growth", "test system": "cPRS conditional knockdown line", "setting": "72 h, together with: 12.5 nM anhydrotetracycline", "endpoint": "IC50", "result": "34 nM"}
{"SMILES": "Oc1ccc(-c2ccc(O)c3ccccc23)c2c1C=NCC2", "test": "asexual parasite proliferation, SYBR Green I fluorescence", "test system": "K1", "endpoint": "IC50", "result": "1620 ± 440 nM"}
{"SMILES": "CCC1(CC)CC(=O)N(C2CCOc3ccc(C(=O)NC4CC(C)(C)Oc5ccccc54)cc32)C(=N)N1 (centres unmarked)", "test system": "3D7", "setting": "10 × EC50, 120 h", "endpoint": "log PRR", "result": 2.67}
{"SMILES": "Cc1cc(C(=O)N[C@@H](CC(=O)NC(C)(C)C)C(=O)NCCNC(=O)c2cccc(-n3cccn3)c2)no1", "test system": "chloroquine-resistant, human, ex vivo field isolate", "endpoint": "EC50", "result": "23 nM"}
{"SMILES": "COc1cccc2c(-c3ccc(O)c4c3CCNC4)ccc(O)c12", "test": "asexual parasite proliferation, SYBR Green I fluorescence", "test system": "HB3", "endpoint": "IC50", "result": "553 ± 81 nM"}
